Results pooled from the literature.
Each line is one published result; not all experiments were run side by side.

Cc1c(Cl)c(C)[n+]([O-])c(Cl)c1-c1noc(-c2cc(O)c(O)c([N+](=O)[O-])c2)n1  adverse event incidence (measured: Severe severity; healthy Chinese subjects; oral, 50 mg, 10 days): 0%
CC(=O)O[C@H]1C(=O)[C@@]2(C)[C@H]([C@H](OC(=O)c3ccccc3)[C@]3(O)C[C@H](OC(=O)[C@H](O)[C@@H](NC(=O)c4ccccc4)c4ccccc4)C(C)=C1C3(C)C)[C@]1(OC(C)=O)CO[C@@H]1C[C@@H]2O  adverse event incidence (measured: Hypophosphataemia; patients with advanced solid tumours; intravenous, dose not given, grade 1 and 2, possibly related to drug): 6%
Cc1ccc(Sc2ccccc2N2CCNCC2)c(C)c1  adverse event incidence (any TEAE; healthy adult men; oral, 5 mg single dose, 10 days): 0%
FC(F)(F)c1ccc(CNc2ccc(Cc3c[nH]c4ncc(Cl)cc34)cn2)cn1  adverse event incidence (measured: periorbital oedema; patients with advanced solid tumours; oral, dose not given, grade 3 and 4, possibly related to drug): 0%
CC(C)n1c(Nc2cccnc2)nc2cnc(Nc3ccc(N4CCN(C)CC4)cc3)nc21  adverse event incidence (measured: Headache; healthy male subjects; oral, 150 mg, with: rifampin): 0%
O=C1CCc2ccc(OCCCCN3CCN(c4cccc(Cl)c4Cl)CC3)cc2N1  adverse event incidence (measured: Akathisia; patients, CYP2D6 intermediate metabolizers; dose not given, long-acting oral or depot): 8.5%
CNC(=O)c1ccc(-c2cnc3ncc(Cc4ccc5ncccc5c4)n3n2)cc1F  adverse event incidence (phase 1 clinical trial, measured: peripheral edema; dose escalation cohort; oral, dose not given, grade 3 or 4): 5%
Cc1c(C(=O)O)ccc2c3n(nc12)[C@@H]1[C@H](C3)N(CC2CC2)[C@@]2(C(=O)Nc3cc(Cl)ccc32)[C@H]1c1cccc(Cl)c1F  adverse event incidence (phase Ia trial, measured: Pyrexia; cancer patients; oral, dose not given, all patients all grades): 14.8%

Some of these lines once more:
Cc1c(Cl)c(C)[n+]([O-])c(Cl)c1-c1noc(-c2cc(O)c(O)c([N+](=O)[O-])c2)n1  adverse event incidence (measured: Severe severity; healthy Chinese subjects; oral, 50 mg, 10 days): 0%
